Measurements collected from several papers.
Each line is one published result; not all experiments were run side by side. Several values in a cell are separate wells, animals, samples, runs or records. ± gives the spread as reported.

Structure (SMILES)	assay	test system	conditions	how to read	quantity	value
COc1cc(N2CCC(N3CCN(C)CC3)CC2)ccc1Nc1ncc(Cl)c(Nc2ccccc2P(C)(C)=O)n1	–	nude mice, NCI-H3122 xenograft	intraperitoneal, 10 mg/kg every other day, day 16	–	tumour volume	387 mm3 and 438 mm3 and 567 mm3 and 494 mm3 and 683 mm3
O=c1[nH]c(=O)n([C@@H]2O[C@H](CO)[C@@H](O)[C@@H]2F)cc1CCCCC[18F]	–	nude mice, RG2 tumour, HSV1-tk expressing RG2 tumour	2 h post injection	–	tumour uptake	0.17 ± 0.03 %ID/g
C=C1CC[C@H](OCCCNC(=O)CCOCCOCCOCCOCCOCCOCCOCCOCCOCCOCCOCCOCCOCCOCCOCCOCCOCCOCCOCCOCCOCCOCCOCCOCCOCCOCCOCCOCCOCCOCCOCCOCCOCCOCCOCCOCCNC(=O)CCN2C(=O)CC(SC[C@H](NC(=O)[C@H](CCCNC(=N)N)NC(=O)[C@@H]3CCCN3C(=O)[C@H](CCC(N)=O)NC(=O)[C@H](CC(C)C)NC(=O)[C@H](CCCCN)NC(=O)[C@H](C)NC(=O)[C@@H]3CCCN3C(=O)[C@@H]3CCCN3C(=O)[C@H](CCCCN)NC(=O)[C@H](CCCCN)NC(=O)[C@H](CO)NC(=O)[C@H](CCC(=O)O)NC(=O)[C@H](CCCCN)NC(=O)[C@H](CCCNC(=N)N)NC(=O)[C@H](CCC(N)=O)NC(=O)[C@H](CCC(N)=O)NC(=O)[C@@H](NC(=O)[C@H](CCCNC(=N)N)NC(=O)[C@H](CCC(N)=O)NC(=O)[C@H](Cc3c[nH]cn3)NC(=O)[C@H](CCC(=O)O)NC(=O)[C@@H]3CCCN3C(=O)[C@H](CO)NC(=O)[C@H](CC(C)C)NC(=O)[C@H](Cc3ccccc3)NC(=O)[C@H](CNC(=O)CCCCCCC)NC(=O)[C@H](CO)NC(=O)CN)C(C)C)C(=O)O)C2=O)C/C1=C/C=C1\CCC[C@]2(C)[C@@H]([C@H](C)CCCC(C)(C)O)CC[C@@H]12 (stereo partly shown)	–	mice, LLC tumour-bearing	dose not given	baseline: pair-fed tumour-bearing	tumour mass	no effect
C=CC(=O)Nc1cc(Nc2ncc(C(=O)OC(C)C)c(-c3cn(C)c4ccccc34)n2)c(OC)cc1N(C)CCN(C)C	–	NCI-H2073 xenograft, EGFR wild type, BALB/c nude mice	oral, 30 mg/kg once daily, 21 days, regression if TGI above 100 %	–	tumour regression	22.3%
N=C(N)NCCC[C@@H](NC(=O)CCOCCOCCNC(=O)[C@H](CCCCNC(=O)CC[C@H](NC(=O)c1ccc(NCc2cnc3nc(N)[nH]c(=O)c3n2)cc1)C(=O)O)NC(=O)CO/N=C/[C@H](F)[C@@H](O)[C@H](O)[C@H](O)CO)C(=O)NCC(=O)N[C@H](CC(=O)O)C(N)=O [fluorine-18 labelled]	–	female nude mice, MDA-MB-231 xenograft, tumour	intravenous, 2.5 h	–	tumour uptake	2.09 ± 0.7 %ID/g
O=c1[nH]c(=O)n([C@@H]2O[C@H](CO)[C@@H](O)[C@@H]2F)cc1[125I]	–	nude mice, RG2 tumour, wild-type RG2 tumour	2 h post injection	–	tumour uptake	0.73 ± 0.17 %ID/g
C=CCn1c(=O)c2cnc(Nc3ccc(N4CCN(C)CC4)cc3)nc2n1-c1ccc2c(n1)[C@@](O)(CC)CC2	–	SUM149PT xenograft, BALB/c nude mice	oral, 80 mg/kg, day 33, once daily intermittent x 6 cycles	–	tumour volume difference	164 ± 22.8 mm3
C[C@@H]1COCCN1c1cc([C@]2(O)C[C@H]3CC[C@@H](C2)O3)c2cnn(-c3cc[nH]n3)c2n1	–	CW-2 colon xenograft mice	5 mg/kg once daily for 7 days, day 14	–	tumour growth inhibition	41.1 ± 7%
CCCC[C@H]1C(=O)N(C)[C@@H](CCCC)C(=O)N[C@@H](CCCCNC(=O)CN2CCN(CC(=O)O)CCN(CC(=O)O)CC2)C(=O)N[C@H](C(=O)NCC(N)=O)CSCC(=O)N[C@@H](Cc2ccc(O)cc2)C(=O)N(C)[C@@H](C)C(=O)N[C@@H](CC(N)=O)C(=O)N2CCC[C@H]2C(=O)N[C@@H](Cc2c[nH]cn2)C(=O)N[C@@H](CCC(=O)O)C(=O)N2C[C@H](O)C[C@H]2C(=O)N[C@@H](Cc2c[nH]c3ccccc23)C(=O)N[C@@H](CO)C(=O)N[C@@H](Cc2cn(CC(=O)O)c3ccccc23)C(=O)N1C [gallium-68 labelled]	PET	BALB/c nude mice U-87 MG xenograft	added: excess unlabelled anti-PD-L1 antibody	–	tumour uptake	decreased
O=c1[nH]c(=O)n([C@@H]2O[C@H](CO)[C@@H](O)[C@@H]2F)cc1CCCC[18F]	–	nude mice, RG2 tumour, wild-type RG2 tumour	2 h post injection	–	tumour uptake	0.16 ± 0.04 %ID/g
CCCCCCCCCCCCCC(=O)N[C@@H](CCSC)C(=O)N[C@@H](C)C(=O)N[C@@H](CO)C(=O)N[C@@H](CCCNC(=N)N)C(=O)NCC(=O)N[C@@H](C)C(=O)N[C@@H](CC(C)C)C(=O)N[C@@H](CCCNC(=N)N)C(=O)N[C@@H](CCCNC(=N)N)C(=O)N[C@@H](CS)C(=O)N[C@@H](CC(C)C)C(=O)N[C@@H](CO)C(=O)N1CCC[C@H]1C(=O)NCC(=O)N[C@@H](CC(C)C)C(=O)N1CCC[C@H]1C(=O)N[C@@H](CCCNC(=N)N)C(=O)N[C@@H](CC(C)C)C(=O)N[C@@H](CC(C)C)C(=O)N[C@@H](Cc1c[nH]cn1)C(=O)N[C@@H](CC(C)C)C(=O)N[C@@H](CO)C(=O)N[C@@H](CCCNC(=N)N)C(=O)NCC(=O)N[C@@H](CC(C)C)C(=O)N[C@@H](C)C(N)=O	–	NOD-SCID mice, MDA-MB-231 orthotopic xenograft	intratumoral, 10 mg/kg every other day	–	tumour mass	decreased
O=c1[nH]c(=O)n([C@@H]2O[C@H](CO)[C@@H](O)[C@@H]2F)cc1CCC[18F]	–	nude mice, RG2 tumour, HSV1-tk expressing RG2 tumour	2 h post injection	–	tumour uptake	0.2 ± 0.11 %ID/g
CCNc1nc2c(c(N3CC(=O)Nc4cc(OC)ccc43)n1)CCC2	–	mice, A-375/TxR xenograft	intravenous, 4 mg/kg twice weekly, 3 weeks	baseline: vehicle	tumour weight decrease	59.9%
